Experimental data from different studies.
Compare with care: the assays were run in different laboratories. Values joined by “and” are separate records of one study, mostly repeats; a detail may differ. Numbers after ± are the reported error.

CO[C@H]1C[C@@H]2CC[C@@H](C)[C@@](O)(O2)C(=O)C(=O)N2CCCC[C@H]2C(=O)O[C@H]([C@H](C)C[C@@H]2CC[C@@H](OC(=O)NCCOCCOCCOCCOCCOCCOCCOCCOCCC(=O)N3CCc4cc(Cn5nc(-c6ccc7oc(N)nc7c6)c6c(N)ncnc65)ccc4C3)[C@H](OC)C2)C[C@@H](O)[C@H](C)/C=C(\C)[C@@H](O)[C@@H](OC)C(=O)[C@H](C)C[C@H](C)/C=C/C=C/C=C/1C
tumour reduction (RECIST v1.1; human; dose not given): 78%

CC1(C)CCC(CN2CCN(c3ccc(C(=O)NS(=O)(=O)c4ccc(NCC5CCOCC5)c([N+](=O)[O-])c4)c(Oc4cnc5[nH]ccc5c4)c3)CC2)=C(c2ccc(Cl)cc2)C1
EC50 (cell kill; primary neoplastic B cells, dog 37; 24 h, multicentric marginal zone lymphoma): > 50 µM

Cn1cc(Nc2nc(N)nc(-c3cccc(-n4ccc5cc(C6CC6)cc(F)c5c4=O)c3CO)n2)cn1
inhibition (CD63 upregulation, anti-IgE-induced; human, multiple ascending dose, whole blood basophils ex vivo; 50 mg twice daily, day 14, 2 h): 69.7%

OC(CCN1CCCCC1)(c1ccccc1)C1CC2C=CC1C2 (centres unmarked)
change, Alpha EEG power, in O2-Pz (resting-state EEG; healthy elderly humans; oral, 4 mg, eyes open, LS mean; baseline: baseline): -12.7%

c1ccc(-c2n[nH]cc2-c2ccnc3ccccc23)nc1
log2 fold change (kinase binding, competitor, MIB/MS competition, item: IRE1; Candida albicans cell lysate; 10 µM; baseline: DMSO): 1.62

O=C1Nc2cc3[nH]nc(-c4ccncc4)c3cc2CN1Cc1ccccc1
partial response, best response (RECIST v1.1; human, relapsed or refractory advanced solid tumours; intravenous, 6.4 mg/kg): 0%

Oc1ccccc1-c1nnc(S)o1
IC50 (CoA-CPM signal reduction, CPM fluorescence thiol; cell-free biochemical; assay interference counter-screen, together with: CoA replacing acetyl-CoA): 160 ± 10 µM

CC(C)C[C@H](NC(=O)[C@H](CC(C)C)NC(=O)[C@H](Cc1c[nH]c2ccccc12)NC(=O)[C@H](CCC(=O)O)NC(=O)[C@@H](NC(=O)[C@H](Cc1ccccc1)NC(=O)[C@H](CCC(=O)O)NC(=O)[C@H](CCCCNC(=O)COCCOCCNC(=O)COCCOCCNC(=O)CC[C@H](NC(=O)CCCCCCCCCCCCCCCCCCC(=O)O)C(=O)O)NC(=O)[C@H](C)NC(=O)[C@H](CCCCN)NC(=O)[C@H](CCCCN)NC(=O)[C@H](CCC(=O)O)NC(=O)[C@H](CC(=O)O)NC(=O)[C@H](CC(C)C)NC(=O)[C@H](Cc1ccc(O)cc1)NC(=O)[C@H](CCCCN)NC(=O)[C@H](CO)NC(=O)[C@H](Cc1ccc(O)cc1)NC(=O)[C@H](CC(=O)O)NC(=O)[C@H](CO)NC(=O)[C@@H](NC(=O)[C@H](Cc1ccccc1)NC(=O)[C@@H](NC(=O)CNC(=O)[C@H](CCC(N)=O)NC(=O)C(C)(C)NC(=O)[C@@H](N)Cc1c[nH]cn1)[C@@H](C)O)[C@@H](C)O)C(C)C)C(=O)N[C@@H](CCC(=O)O)C(=O)NCC(=O)NCC(=O)N1CCC[C@H]1C(=O)N[C@@H](CO)C(=O)N[C@@H](CO)C(=O)NCC(N)=O
change from baseline (item: glucagon; human, fasting plasma; concentration not given, day 134, LS mean; baseline: baseline): -14.5 pmol/L

Cn1cc(Nc2nccc(-c3ccc4c(c3)CN(C3COC3)CC[C@H]4NC(=O)c3cn(C(C)(C)C)nn3)n2)cn1
pathway activation z-score (item: Glutaryl-CoA Degradation; splenic B cells, Mus musculus; 30 mg/kg, together with: IgD activation; baseline: vehicle, direction not given): 1

COc1cc(Nc2ncc3c(n2)-c2ccc(Cl)cc2C(c2c(F)cccc2OC)=NC3)ccc1C(=O)O
median response score (mouse, NB-1771 neuroblastoma xenograft; 10.4 mg/kg; direction not given): 10

Cc1n[nH]c2ccc(-c3cc(OC[C@@H](N)Cc4ccccc4)cnc3-c3ccoc3)cc12
log2 fold change (kinase binding, competitor, MIB/MS competition, item: HSL1; Candida albicans cell lysate; 1 µM; baseline: DMSO): 0.197

Cl.N[C@@H](Cc1ccc(Oc2nnc(-c3ccccc3)nn2)cc1)C(=O)O
kobs (iEDDA cycloaddition; aqueous DMSO 25 %; 37 °C, together with: TCO-OH 15 mM): 1.2 s⁻¹

Cc1ccc(S(=O)(=O)N(CC#N)C(=O)Cc2cc(C(F)(F)F)cc(C(F)(F)F)c2)cc1
pseudo-first-order rate constant (HPLC-MS; pH 10.2, together with: 50 mM N-α-acetyl-lysine): 6.6 h⁻¹

Cc1ccc(C(=O)OCc2ccc([C@@H](CN)C(=O)Nc3ccc4cnccc4c3)cc2)c(C)c1
IOP (tonometry; NZW rabbit, magnetic bead-induced ocular hypertension; ocular, 0.02%, 30 h): 33.9 mmHg

C[C@@H](NC(=O)N1C(=O)[C@H](Cc2ccnc(N)c2)[C@H]1C(=O)O)C1CCCCC1
maximum prothrombin time (human, plasma; continuous intravenous infusion, 0.3 mg/kg/h, days 1 to 6 of 5-day infusion, mean): 13.4 s

COc1ccccc1[C@H](Cn1c(=O)n(C(C)(C)C(=O)O)c(=O)c2c(C)c(-c3ncco3)sc21)OC1CCOCC1
fractional hepatic DNL ([1-13C]acetate infusion, isotopomer analysis; overweight or obese healthy men, plasma VLDL-TG palmitate; oral, 50 mg single dose, 8 h post-dose, together with: oral fructose): 12 % new palmitate

[Cl-].[Cl-].[Ru+2].c1cnc2c(c1)ccc1cccnc12.c1cnc2c(c1)ccc1cccnc12.c1csc(-c2ccc(-c3ccc(-c4ccc(-c5nc6c7cccnc7c7ncccc7c6[nH]5)s4)s3)s2)c1
singlet oxygen quantum yield (air-saturated acetonitrile): ~88%

CC(C)NCC(O)c1ccc(O)c(O)c1 (centres unmarked)
sarcomere length (ventricular cardiomyocytes, C57BL/6 mouse; dose not given, 0.044 s): 1.72 µm

Cc1cc(Nc2cc3ncccc3c(N[C@@H]3C[C@H]4CC[C@@H](C3)N4CCC#N)n2)n[nH]1
change physician global assessment (moderate-severe ulcerative colitis patients; 20 mg, day 28, Mayo subscore, unit not given; baseline: baseline): 0

CN[C@@H]1COc2c(S(=O)(=O)NC(=O)Nc3c4c(cc5c3CCC5)CCC4)cnn2C1
inhibition (item: IL-18; human participants, whole blood ex vivo; 150 mg single dose, 1 h, IL-18, circulating, adjusted for, together with: LPS/ATP; baseline: baseline): 94.1%

Oc1ccc(Br)cc1C=NCCN1CCOCC1
inhibition (hydroxyl radical scavenging; 200 µM): 43.5%

N#Cc1ccn2c(-c3ccncc3)c(-c3ccc(F)cc3)nc2c1
log2 fold change (kinase binding, competitor, MIB/MS competition, item: IKS1; Candida albicans cell lysate; 100 nM; baseline: DMSO): -0.459

Cn1cc([C@H]2C[C@H]3CSC(N)=N[C@@]3(c3ccc(F)cc3F)CO2)cn1
brain Aβ40 level (item: Aβx-40; wild-type mouse, brain; subcutaneous, 10 mg/kg, 1 h): 2.5 ng/g

CSCCNc1nc(SCCC(F)(F)F)nc2c1ncn2[C@@H]1O[C@H](COP(=O)(O)OP(=O)(O)C(Cl)(Cl)P(=O)(O)O)[C@@H](O)[C@H]1O
patients with high residual reactivity (platelet aggregation, light transmission aggregometry; human patients, platelet-rich plasma; dose not given, 15 min, aggregation above 46%, together with: ADP 5 µM): 60%

C[C@H]1O[C@@H](O[C@H]2CC[C@@]3(C)[C@@H](CC[C@]4(C)[C@@H]3C=C[C@]35OC[C@@]6(CCC(C)(C)C[C@H]63)[C@@H](O)C[C@]54C)[C@]2(C)CO)[C@H](O)[C@@H](O[C@@H]2O[C@H](CO)[C@@H](O)[C@H](O)[C@H]2O)[C@H]1O
steatosis area (H&E staining; Mus musculus, chronic-plus-binge ethanol, liver; dose not given): 0.507% and 0.482% and 0.484% and 0.394% and 0.472% and 0.435%

CC(C)(C)c1ccc(OC2=CS(=O)(=O)c3ccccc32)cc1
IC50 (CoA-CPM signal reduction, CPM fluorescence thiol; cell-free biochemical; assay interference counter-screen, together with: CoA replacing acetyl-CoA): > 125 µM

Cc1cn(-c2ccc3n(c2=O)CCN([C@@H](C)[C@@H]2CC[C@H](c4cc(F)c(Cl)cc4C(F)(F)F)O2)C3=O)cn1
maximum CSF Aβ40 change (human, CSF; 300 mg single dose, serial CSF sampling; baseline: placebo and baseline): -22.3%

CN(C)C(=O)c1cc2cnc(Nc3ccc(N4CCNCC4)cn3)nc2n1C1CCCC1
enrichment score (RNA-seq GSEA, item: HALLMARK_UNFOLDED_PROTEIN_RESPONSE gene set; MB002 tumour; concentration not given; baseline: vehicle, direction not given): 0.204

N#CCC1CCN(c2nc(Nc3ccc(N4CCC(O)CC4)cc3)c3c(=O)[nH]ncc3n2)CC1
IL-18 level change (Olink multiplex; human, serum; 20 mg, day 29, unit not given; baseline: baseline): -1.02

O=C(O)CNC(=O)Cc1ccccc1
sarcomere length (ventricular cardiomyocytes, C57BL/6 mouse; dose not given, 0.816 s): 1.66 µm

CC(C)C[C@H](NC(=O)[C@H](CC(C)C)NC(=O)C(C)(C)NC(=O)[C@@H](NC(=O)[C@H](CCC1CCCCC1)NC(=O)[C@@H]1C[C@H](C)CN1C(=O)c1ccc(F)cc1)[C@H](O)C(C)C)C(=O)NC(C)(C)C(=O)NC(C)(C)C(=O)NCCC(=O)N[C@@H](C)CN(C)C
calcein leakage (small unilamellar vesicles; concentration not given): 22.5%

C[C@H]1C[C@H]2CSC(N)=N[C@@]2(c2nc(NC(=O)c3ccc(OC(F)F)cn3)cs2)CO1
percent change from baseline (item: Aβ1-40; healthy adults, plasma; 200 mg single dose, 6 h post-dose; baseline: placebo): -84.3%

O=C1CC(N2CCN(c3ncccn3)CC2)C(=O)N1c1cc(Cl)cc(Cl)c1 (centres unmarked)
IC50 (CoA-CPM signal reduction, CPM fluorescence thiol; cell-free biochemical; assay interference counter-screen, together with: CoA replacing acetyl-CoA): > 125 µM

Cc1noc(C)c1-c1cc(C(O)(c2ccccn2)c2ccccn2)c2nc(C3CC3)[nH]c2c1
maximum induction (item: HEXIM1 expression; human, peripheral blood; 6 mg, day 1, 1604 study): 40%

NC(=O)c1cnc2[nH]ccc2c1N[C@@H]1[C@@H]2CC3C[C@H]1C[C@@](O)(C3)C2
change from baseline (flow cytometry, item: regulatory T cells; Japanese healthy subjects, peripheral blood; oral, 100 mg twice daily, day 7): -0.68%

C[C@H](Oc1ccc(Br)cc1-c1ccon1)C(=O)O
difference from placebo (first response latency; human, tibialis anterior muscle; 800 mg, 30 Hz, single ascending dose): -0.428%

CC(c1cc2ccccc2s1)N(O)C(N)=O (centres unmarked)
14-HDHA level (human blood; 3 µM, together with: A23187): 564 ± 88 pg/mL

CN1CC(Oc2cnc(C#N)cc2-c2ccn3nc(NC(=O)C4CC4)cc3c2)C1
splenomegaly (Rag2-/- mouse, anti-CD40 colitis; dose not given, day 7): decreased

Excerpt of the above:
O=C1Nc2cc3[nH]nc(-c4ccncc4)c3cc2CN1Cc1ccccc1
partial response, best response (RECIST v1.1; human, relapsed or refractory advanced solid tumours; intravenous, 6.4 mg/kg): 0%

Oc1ccccc1-c1nnc(S)o1
IC50 (CoA-CPM signal reduction, CPM fluorescence thiol; cell-free biochemical; assay interference counter-screen, together with: CoA replacing acetyl-CoA): 160 ± 10 µM

CC(C)C[C@H](NC(=O)[C@H](CC(C)C)NC(=O)[C@H](Cc1c[nH]c2ccccc12)NC(=O)[C@H](CCC(=O)O)NC(=O)[C@@H](NC(=O)[C@H](Cc1ccccc1)NC(=O)[C@H](CCC(=O)O)NC(=O)[C@H](CCCCNC(=O)COCCOCCNC(=O)COCCOCCNC(=O)CC[C@H](NC(=O)CCCCCCCCCCCCCCCCCCC(=O)O)C(=O)O)NC(=O)[C@H](C)NC(=O)[C@H](CCCCN)NC(=O)[C@H](CCCCN)NC(=O)[C@H](CCC(=O)O)NC(=O)[C@H](CC(=O)O)NC(=O)[C@H](CC(C)C)NC(=O)[C@H](Cc1ccc(O)cc1)NC(=O)[C@H](CCCCN)NC(=O)[C@H](CO)NC(=O)[C@H](Cc1ccc(O)cc1)NC(=O)[C@H](CC(=O)O)NC(=O)[C@H](CO)NC(=O)[C@@H](NC(=O)[C@H](Cc1ccccc1)NC(=O)[C@@H](NC(=O)CNC(=O)[C@H](CCC(N)=O)NC(=O)C(C)(C)NC(=O)[C@@H](N)Cc1c[nH]cn1)[C@@H](C)O)[C@@H](C)O)C(C)C)C(=O)N[C@@H](CCC(=O)O)C(=O)NCC(=O)NCC(=O)N1CCC[C@H]1C(=O)N[C@@H](CO)C(=O)N[C@@H](CO)C(=O)NCC(N)=O
change from baseline (item: glucagon; human, fasting plasma; concentration not given, day 134, LS mean; baseline: baseline): -14.5 pmol/L

Cn1cc(Nc2nccc(-c3ccc4c(c3)CN(C3COC3)CC[C@H]4NC(=O)c3cn(C(C)(C)C)nn3)n2)cn1
pathway activation z-score (item: Glutaryl-CoA Degradation; splenic B cells, Mus musculus; 30 mg/kg, together with: IgD activation; baseline: vehicle, direction not given): 1

COc1cc(Nc2ncc3c(n2)-c2ccc(Cl)cc2C(c2c(F)cccc2OC)=NC3)ccc1C(=O)O
median response score (mouse, NB-1771 neuroblastoma xenograft; 10.4 mg/kg; direction not given): 10
